# Experimental data pooled from the literature.
# Each line is one published result; not all experiments were run side by side. “And” joins repeats or separate records; there may be more than shown.
# GBA2: Beta-glucosidase (GBA2, Homo sapiens, UniProt Q9HCG7)
# UniProt Q9HCG7, sequence (whole entry, looked up): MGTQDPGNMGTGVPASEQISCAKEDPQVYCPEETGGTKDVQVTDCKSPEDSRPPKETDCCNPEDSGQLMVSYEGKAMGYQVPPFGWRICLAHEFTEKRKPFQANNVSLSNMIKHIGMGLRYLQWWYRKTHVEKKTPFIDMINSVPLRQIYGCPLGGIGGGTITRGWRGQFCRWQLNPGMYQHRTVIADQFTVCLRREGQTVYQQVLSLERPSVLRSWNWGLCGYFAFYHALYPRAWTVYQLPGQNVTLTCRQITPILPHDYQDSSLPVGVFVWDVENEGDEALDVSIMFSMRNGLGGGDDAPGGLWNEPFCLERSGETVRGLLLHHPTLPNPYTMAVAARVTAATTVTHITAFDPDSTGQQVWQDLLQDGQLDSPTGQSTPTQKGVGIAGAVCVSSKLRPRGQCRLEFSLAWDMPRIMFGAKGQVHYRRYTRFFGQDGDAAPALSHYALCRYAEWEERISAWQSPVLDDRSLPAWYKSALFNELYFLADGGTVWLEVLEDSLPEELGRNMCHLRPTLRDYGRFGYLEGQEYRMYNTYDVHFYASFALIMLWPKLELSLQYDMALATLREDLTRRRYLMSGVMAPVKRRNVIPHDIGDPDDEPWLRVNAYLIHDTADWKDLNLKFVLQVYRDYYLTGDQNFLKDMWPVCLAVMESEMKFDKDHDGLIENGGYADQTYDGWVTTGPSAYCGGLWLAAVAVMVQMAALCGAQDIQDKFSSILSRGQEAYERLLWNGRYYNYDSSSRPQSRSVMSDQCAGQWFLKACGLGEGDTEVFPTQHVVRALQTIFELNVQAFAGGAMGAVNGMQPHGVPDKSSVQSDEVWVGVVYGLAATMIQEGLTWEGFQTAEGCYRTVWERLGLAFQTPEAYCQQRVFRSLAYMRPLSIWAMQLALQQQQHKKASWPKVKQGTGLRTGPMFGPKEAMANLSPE
Structure (SMILES),target or system,assay,test system,setting,scale,endpoint,value
COc1ccccc1-c1ccncc1C(=O)Nc1nnc(OCc2ccc(Cl)cc2)s1,MDA-MB-231,,,"1.5 µM, single replicate",relative to: untreated,colony survival,85.2% and 101%
CC(C)c1ccc(N(C)c2ccc3c(c2)OCC[C@H]3CNc2cnccc2C(=O)O)cc1,SW780,"cell growth or viability, ATP luminescence",,7 days,,IC50,13 nM
Cc1ncsc1-c1ccc(C(C)NC(=O)C2CC(O)CN2C(=O)C(NC(=O)CCCCCCCCCCN2CCCC(Nc3ncc(Cl)c(Nc4ccccc4S(=O)(=O)C(C)C)n3)C2)C(C)(C)C)cc1 (centres unmarked),22Rv1,"RNA-seq, refers to: RBM23 mRNA",,concentration not given,relative to: DMSO,log2 fold change,-1.09
CCCCCCCCN1C[C@H](O)[C@@H](O)[C@H](O)[C@@H]1CO,GBA2,"inhibitor, 4MU-β-D-glucopyranoside",HEK293T homogenates overexpressing GBA2,,relative to: GBA1 IC50 over GBA2 IC50,selectivity ratio,1160
CCN(C(=O)c1cc(F)ccc1Oc1nncnc1N1CCC2(C1)CN([C@H](CCCN(C)CCOC)C(C)C)C2)C(C)C,T24,cell growth or viability,,72 h,,GI50,> 10000 nM
COC1CN([C@H]2CC[C@H]([C@@]3(C)Oc4c(Cl)cc(C(=O)NCc5c(SC)cc(C)[nH]c5=O)c(C)c4O3)CC2)C1,,"RNA-seq, refers to: LYPD1","human, whole blood","dose not given, 24 h",relative to: pretreatment baseline,log2 fold change,4.61
CCCCCN1C[C@H](O)[C@@H](O)[C@H](O)[C@@H]1CO,GBA2,"inhibitor, 4MU-β-D-glucopyranoside",HEK293T homogenates overexpressing GBA2,,relative to: GBA1 IC50 over GBA2 IC50,selectivity ratio,4000
CNS(=O)(=O)Nc1nccc(Cc2c(C)c3ccc(Oc4ncccc4F)cc3oc2=O)c1F,UMUC3,cell viability,,7 days,,IC50,> 1000 nM
Cn1ncc2cc(-c3cncc(Cl)c3N3CCC4(CCNC4=O)CC3)ccc21,LS174T,"microarray, refers to: SLC6A4",,"concentration not given, 4 h, gene set SERT",relative to: untreated cells,fold change in expression,-1.43
CCN(CC)CC(=O)Nc1cccc(-n2cc(-c3ccc4ccc(-c5cn(-c6cccc(NC(=O)CN(CC)CC)c6)nn5)cc4c3)nn2)c1,RCC4,"PCR angiogenesis array, refers to: ANGPT1",,"5 x IC50, 6 h, normoxia",relative to: untreated,fold regulation,1.13
CN1CCCNC(=O)c2cccc(c2)C(=O)NCCCN(C)CCCNc2cccc3c2C(=O)c2cccc(c2C3=O)NCCC1,SAS,"RNA-Seq, refers to: PIBF1 mRNA",,"1 µM, 6 h",relative to: untreated cells,log2 fold change,-1.13

# Excerpt of the above:
Structure (SMILES),target or system,assay,test system,setting,scale,endpoint,value
CCCCCCCCN1C[C@H](O)[C@@H](O)[C@H](O)[C@@H]1CO,GBA2,"inhibitor, 4MU-β-D-glucopyranoside",HEK293T homogenates overexpressing GBA2,,relative to: GBA1 IC50 over GBA2 IC50,selectivity ratio,1160
CCN(C(=O)c1cc(F)ccc1Oc1nncnc1N1CCC2(C1)CN([C@H](CCCN(C)CCOC)C(C)C)C2)C(C)C,T24,cell growth or viability,,72 h,,GI50,> 10000 nM
